Measurements of several laboratories.
Compare with care: the assays were run in different laboratories. ± gives the spread as reported.
Tumor necrosis factor receptor superfamily member 9: Tumor necrosis factor receptor superfamily member 9 (Homo sapiens, UniProt Q07011)
RPA1 N-terminal domain: Replication protein A 70 kDa DNA-binding subunit, N-terminal domain (RPA1, Homo sapiens, UniProt P27694)
CD28: CD28 (Homo sapiens, UniProt P10747)
CD27: CD27 antigen (CD27, Homo sapiens, UniProt P26842)
Hepatitis A virus cellular receptor 2: Hepatitis A virus cellular receptor 2 (Homo sapiens, UniProt Q8TDQ0)
EPHA2: Ephrin type-A receptor 2 (EPHA2, Homo sapiens, UniProt P29317)

Amino acid sequences for entries named in this document (tags omitted). Residues count along the entry.
UniProt Q07011, whole entry, looked up: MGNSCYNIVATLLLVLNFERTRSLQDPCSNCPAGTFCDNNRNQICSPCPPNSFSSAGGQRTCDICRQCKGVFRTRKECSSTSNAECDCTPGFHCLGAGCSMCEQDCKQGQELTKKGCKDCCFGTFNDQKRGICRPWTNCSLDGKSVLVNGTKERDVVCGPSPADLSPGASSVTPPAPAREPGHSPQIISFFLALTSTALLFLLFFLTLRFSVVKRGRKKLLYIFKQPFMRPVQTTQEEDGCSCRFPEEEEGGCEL
UniProt P10747, whole entry, looked up: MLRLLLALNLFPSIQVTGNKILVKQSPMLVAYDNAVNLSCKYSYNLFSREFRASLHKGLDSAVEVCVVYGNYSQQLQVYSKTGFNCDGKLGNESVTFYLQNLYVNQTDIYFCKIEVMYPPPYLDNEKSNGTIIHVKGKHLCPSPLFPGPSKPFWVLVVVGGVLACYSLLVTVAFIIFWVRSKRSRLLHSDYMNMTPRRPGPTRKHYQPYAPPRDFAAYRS
UniProt P26842, whole entry, looked up: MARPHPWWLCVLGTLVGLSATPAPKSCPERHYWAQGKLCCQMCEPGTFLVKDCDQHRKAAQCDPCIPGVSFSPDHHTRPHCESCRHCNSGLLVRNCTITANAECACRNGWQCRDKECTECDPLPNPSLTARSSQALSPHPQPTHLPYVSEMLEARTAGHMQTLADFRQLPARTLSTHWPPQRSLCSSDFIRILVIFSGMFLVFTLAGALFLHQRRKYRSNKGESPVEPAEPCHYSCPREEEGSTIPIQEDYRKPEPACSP
UniProt Q8TDQ0, whole entry, looked up: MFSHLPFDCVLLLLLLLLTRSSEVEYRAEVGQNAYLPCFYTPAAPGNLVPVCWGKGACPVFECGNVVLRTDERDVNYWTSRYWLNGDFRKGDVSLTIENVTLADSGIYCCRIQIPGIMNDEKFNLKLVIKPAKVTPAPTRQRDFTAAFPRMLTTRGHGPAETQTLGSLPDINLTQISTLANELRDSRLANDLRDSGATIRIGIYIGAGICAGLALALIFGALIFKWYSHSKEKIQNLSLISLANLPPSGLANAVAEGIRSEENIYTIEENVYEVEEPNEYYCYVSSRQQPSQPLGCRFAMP
UniProt P29317, 596-900 limits assumed: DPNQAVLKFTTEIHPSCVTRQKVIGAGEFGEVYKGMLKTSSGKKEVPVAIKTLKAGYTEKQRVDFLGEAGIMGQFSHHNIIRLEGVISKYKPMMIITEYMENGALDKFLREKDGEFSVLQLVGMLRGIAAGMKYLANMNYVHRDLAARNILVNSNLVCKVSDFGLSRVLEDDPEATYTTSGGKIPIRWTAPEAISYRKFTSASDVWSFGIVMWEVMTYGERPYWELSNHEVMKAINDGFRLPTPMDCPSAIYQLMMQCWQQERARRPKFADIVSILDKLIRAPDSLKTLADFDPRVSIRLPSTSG
UniProt Q13029, 3-200 limits assumed: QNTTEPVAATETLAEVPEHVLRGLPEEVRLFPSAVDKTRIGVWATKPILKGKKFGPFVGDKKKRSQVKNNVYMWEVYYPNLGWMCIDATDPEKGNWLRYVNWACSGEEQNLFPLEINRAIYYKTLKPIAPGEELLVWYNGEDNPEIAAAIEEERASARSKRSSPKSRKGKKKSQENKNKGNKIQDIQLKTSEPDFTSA
UniProt Q06187, whole entry: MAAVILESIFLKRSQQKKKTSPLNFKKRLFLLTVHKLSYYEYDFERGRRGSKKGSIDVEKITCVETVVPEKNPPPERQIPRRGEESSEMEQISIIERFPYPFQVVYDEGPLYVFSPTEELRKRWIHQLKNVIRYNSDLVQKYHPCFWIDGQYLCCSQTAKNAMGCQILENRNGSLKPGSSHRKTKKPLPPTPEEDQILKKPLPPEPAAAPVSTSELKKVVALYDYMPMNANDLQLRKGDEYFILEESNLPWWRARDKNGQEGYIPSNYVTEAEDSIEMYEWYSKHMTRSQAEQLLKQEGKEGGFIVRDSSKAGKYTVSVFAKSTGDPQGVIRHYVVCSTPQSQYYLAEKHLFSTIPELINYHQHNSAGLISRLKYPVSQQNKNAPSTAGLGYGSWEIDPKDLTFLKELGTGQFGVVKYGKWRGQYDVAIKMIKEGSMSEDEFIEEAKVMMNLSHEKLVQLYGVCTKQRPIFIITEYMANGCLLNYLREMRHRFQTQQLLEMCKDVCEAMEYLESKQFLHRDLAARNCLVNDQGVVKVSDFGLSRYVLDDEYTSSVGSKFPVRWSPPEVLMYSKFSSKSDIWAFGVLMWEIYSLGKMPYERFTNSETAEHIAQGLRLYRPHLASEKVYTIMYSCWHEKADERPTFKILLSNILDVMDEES
UniProt O60502, whole entry: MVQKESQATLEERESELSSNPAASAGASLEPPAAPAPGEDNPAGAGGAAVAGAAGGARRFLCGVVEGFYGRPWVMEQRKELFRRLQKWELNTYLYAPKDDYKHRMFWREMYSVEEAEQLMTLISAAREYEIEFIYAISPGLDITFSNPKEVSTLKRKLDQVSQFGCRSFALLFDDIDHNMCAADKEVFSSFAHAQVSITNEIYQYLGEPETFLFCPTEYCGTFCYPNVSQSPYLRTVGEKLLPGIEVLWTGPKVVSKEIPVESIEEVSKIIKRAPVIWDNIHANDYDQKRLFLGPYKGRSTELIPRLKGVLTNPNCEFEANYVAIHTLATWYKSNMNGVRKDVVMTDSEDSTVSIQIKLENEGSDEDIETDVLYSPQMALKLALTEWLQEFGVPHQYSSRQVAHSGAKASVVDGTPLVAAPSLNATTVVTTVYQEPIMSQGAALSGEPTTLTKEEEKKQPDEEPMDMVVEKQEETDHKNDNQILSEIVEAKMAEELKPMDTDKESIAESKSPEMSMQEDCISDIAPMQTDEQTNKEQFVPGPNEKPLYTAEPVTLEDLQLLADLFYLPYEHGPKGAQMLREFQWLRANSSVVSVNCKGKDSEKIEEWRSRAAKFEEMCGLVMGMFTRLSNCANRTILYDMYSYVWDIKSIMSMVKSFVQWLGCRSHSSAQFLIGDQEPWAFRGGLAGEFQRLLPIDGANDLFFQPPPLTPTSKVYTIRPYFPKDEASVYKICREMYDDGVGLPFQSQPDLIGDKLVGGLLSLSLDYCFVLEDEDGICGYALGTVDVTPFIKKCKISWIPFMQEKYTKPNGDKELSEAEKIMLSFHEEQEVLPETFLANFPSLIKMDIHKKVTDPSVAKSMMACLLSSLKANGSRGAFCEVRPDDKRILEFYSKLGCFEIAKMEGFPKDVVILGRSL
UniProt Q04609, whole entry, looked up: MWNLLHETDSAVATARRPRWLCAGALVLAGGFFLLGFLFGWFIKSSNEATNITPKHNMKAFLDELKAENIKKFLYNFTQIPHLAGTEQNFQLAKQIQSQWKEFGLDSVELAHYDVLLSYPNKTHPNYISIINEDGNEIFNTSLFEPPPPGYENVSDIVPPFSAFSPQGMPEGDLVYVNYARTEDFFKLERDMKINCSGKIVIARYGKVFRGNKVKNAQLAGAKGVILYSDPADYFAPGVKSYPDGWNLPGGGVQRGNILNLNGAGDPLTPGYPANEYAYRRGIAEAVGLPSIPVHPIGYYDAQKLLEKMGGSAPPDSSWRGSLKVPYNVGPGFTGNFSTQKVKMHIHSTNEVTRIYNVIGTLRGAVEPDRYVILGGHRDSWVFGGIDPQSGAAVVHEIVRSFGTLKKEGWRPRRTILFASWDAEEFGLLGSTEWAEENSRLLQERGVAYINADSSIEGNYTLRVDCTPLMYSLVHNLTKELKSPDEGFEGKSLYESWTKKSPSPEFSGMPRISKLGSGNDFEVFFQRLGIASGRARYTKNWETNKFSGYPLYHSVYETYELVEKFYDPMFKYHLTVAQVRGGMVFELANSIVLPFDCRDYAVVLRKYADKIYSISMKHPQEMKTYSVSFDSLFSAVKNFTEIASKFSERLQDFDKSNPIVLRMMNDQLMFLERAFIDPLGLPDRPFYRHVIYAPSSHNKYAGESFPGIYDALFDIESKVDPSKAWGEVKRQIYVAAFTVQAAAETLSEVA
UniProt P49336, whole entry: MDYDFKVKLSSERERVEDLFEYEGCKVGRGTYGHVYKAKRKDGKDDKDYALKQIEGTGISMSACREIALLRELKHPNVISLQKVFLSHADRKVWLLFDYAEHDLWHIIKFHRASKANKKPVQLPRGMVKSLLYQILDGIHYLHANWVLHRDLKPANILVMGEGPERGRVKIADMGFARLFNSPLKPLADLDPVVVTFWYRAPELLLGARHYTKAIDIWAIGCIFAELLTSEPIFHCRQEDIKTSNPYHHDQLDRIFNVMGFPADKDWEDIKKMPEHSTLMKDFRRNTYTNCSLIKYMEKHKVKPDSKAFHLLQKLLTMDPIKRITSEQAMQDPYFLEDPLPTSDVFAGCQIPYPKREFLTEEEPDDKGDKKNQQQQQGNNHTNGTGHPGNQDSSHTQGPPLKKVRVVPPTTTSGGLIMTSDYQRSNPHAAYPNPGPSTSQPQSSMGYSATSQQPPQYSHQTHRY
UniProt P50552, whole entry, looked up: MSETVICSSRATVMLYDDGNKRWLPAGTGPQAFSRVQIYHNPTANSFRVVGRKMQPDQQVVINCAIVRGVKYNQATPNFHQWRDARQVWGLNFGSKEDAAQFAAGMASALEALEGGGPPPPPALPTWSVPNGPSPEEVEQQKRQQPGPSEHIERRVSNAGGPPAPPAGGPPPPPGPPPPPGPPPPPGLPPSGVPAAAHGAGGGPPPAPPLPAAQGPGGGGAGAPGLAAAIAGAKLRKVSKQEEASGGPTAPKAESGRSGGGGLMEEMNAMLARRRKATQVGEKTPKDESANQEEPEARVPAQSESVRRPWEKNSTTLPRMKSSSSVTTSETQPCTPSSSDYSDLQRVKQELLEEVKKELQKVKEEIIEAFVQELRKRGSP
UniProt Q93009, 208-560 limits assumed: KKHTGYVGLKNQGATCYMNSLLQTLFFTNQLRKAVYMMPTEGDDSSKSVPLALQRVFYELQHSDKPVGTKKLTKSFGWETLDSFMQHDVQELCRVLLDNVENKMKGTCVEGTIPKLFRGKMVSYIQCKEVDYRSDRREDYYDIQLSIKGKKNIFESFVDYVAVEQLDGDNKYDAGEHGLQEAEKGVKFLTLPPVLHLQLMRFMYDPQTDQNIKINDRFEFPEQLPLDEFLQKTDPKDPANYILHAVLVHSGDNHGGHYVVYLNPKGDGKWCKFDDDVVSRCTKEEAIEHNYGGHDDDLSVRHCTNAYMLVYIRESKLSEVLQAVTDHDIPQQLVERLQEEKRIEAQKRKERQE
UniProt Q28309, whole entry: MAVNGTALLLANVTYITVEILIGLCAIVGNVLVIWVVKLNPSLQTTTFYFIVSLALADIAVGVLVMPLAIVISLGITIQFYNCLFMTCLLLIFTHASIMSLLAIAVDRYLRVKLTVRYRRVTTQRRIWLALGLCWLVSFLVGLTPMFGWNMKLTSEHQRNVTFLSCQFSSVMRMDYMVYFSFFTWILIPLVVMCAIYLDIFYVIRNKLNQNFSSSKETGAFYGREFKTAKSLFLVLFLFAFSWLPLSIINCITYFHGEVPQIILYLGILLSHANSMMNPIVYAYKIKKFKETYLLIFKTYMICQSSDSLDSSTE
UniProt Q9UGL1, 1-100 limits assumed: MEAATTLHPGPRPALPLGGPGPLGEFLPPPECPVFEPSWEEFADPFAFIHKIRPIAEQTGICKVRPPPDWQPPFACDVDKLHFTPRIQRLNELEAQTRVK
UniProt Q9UGL1, 375-604 limits assumed: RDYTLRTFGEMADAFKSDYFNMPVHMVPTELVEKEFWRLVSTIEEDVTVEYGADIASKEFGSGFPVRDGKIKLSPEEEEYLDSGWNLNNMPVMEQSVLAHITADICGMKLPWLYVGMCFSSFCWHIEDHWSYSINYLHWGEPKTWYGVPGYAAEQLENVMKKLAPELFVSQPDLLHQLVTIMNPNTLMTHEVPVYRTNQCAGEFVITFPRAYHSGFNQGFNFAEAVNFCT
UniProt P55217, 69-563 limits assumed: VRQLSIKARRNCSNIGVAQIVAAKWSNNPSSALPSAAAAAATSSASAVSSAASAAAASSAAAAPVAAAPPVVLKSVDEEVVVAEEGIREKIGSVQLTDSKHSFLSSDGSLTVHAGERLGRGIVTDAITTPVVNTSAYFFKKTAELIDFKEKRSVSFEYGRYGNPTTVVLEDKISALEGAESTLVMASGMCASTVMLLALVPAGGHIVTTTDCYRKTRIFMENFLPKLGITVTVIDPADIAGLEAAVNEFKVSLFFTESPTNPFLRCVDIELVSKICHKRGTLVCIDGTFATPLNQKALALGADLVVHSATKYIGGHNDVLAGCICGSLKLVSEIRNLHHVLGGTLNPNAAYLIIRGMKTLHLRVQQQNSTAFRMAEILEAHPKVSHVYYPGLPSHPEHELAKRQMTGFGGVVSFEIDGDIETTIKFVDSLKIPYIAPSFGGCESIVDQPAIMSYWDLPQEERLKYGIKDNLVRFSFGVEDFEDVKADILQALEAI
UniProt Q9H7M9, whole entry, looked up: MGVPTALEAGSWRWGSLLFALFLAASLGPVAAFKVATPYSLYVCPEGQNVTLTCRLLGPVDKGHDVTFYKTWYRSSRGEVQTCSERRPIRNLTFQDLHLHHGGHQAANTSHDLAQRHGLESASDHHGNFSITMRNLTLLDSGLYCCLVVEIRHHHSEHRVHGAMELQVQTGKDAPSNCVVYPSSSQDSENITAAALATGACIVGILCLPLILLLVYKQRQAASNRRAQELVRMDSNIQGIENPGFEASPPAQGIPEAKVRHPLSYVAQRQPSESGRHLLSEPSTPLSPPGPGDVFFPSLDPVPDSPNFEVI

N[C@@H](CCSC[C@H]1O[C@@H](n2cnc3c(NCCCCNC(=O)CC(NC(=O)c4ccc(C5(C(F)(F)F)N=N5)cc4)C(=O)NCCCOCCOCCOCCCNC(=S)Nc4ccc5c(c4)C(=O)OC54c5ccc(O)cc5Oc5cc(O)ccc54)ncnc32)[C@H](O)[C@@H]1O)C(=O)O (stereo partly drawn) has a Kd of 10.1 ± 2.87 µM (PR domain zinc finger protein 2 (PRDM2, Homo sapiens, UniProt Q13029); binding, fluorescence anisotropy).
O=C(NCc1nnc2n1CCN(Cc1cc3ccccc3[nH]1)CC2)C1CCOC1 (stereo not drawn) has a Kd of 0.69 µM (Tumor necrosis factor receptor superfamily member 9; binding, microscale thermophoresis).
CCc1ccc(NC(=O)c2ccc(C)c(S(=O)(=O)Nc3ccc(Cl)c(Cl)c3)c2)c(C(=O)O)c1 has a Kd of 4 ± 0.19 µM (RPA1 N-terminal domain; binding, fluorescence polarisation competition; added: FITC-ATRIP probe).
Cc1ccnc(NC(=O)c2ccc(-c3nn([C@@H]4CCCN(C(=O)C5CC5)C4)c4ncnc(N)c34)cc2)c1 has a Kd of 0.00259 ± 7e-05 µM (Tyrosine-protein kinase BTK, non-phosphorylated (BTK, Homo sapiens, UniProt Q06187); TR-FRET binding kinetics; 37 °C, unphosphorylated enzyme).
With O=C(Nc1ccccc1C(=O)O)c1cccc(S(=O)(=O)Nc2ccc(Cl)c(Cl)c2)c1 the Kd was 17 ± 1 µM (RPA1 N-terminal domain; binding, fluorescence polarisation competition; added: FITC-ATRIP probe).
The Kd of CC(=O)Nc1ncc(CN2CC[C@H](Oc3cccc(F)n3)C[C@@H]2C)s1 [isotope labelled] is reported as 0.0007 ± 0.0015 µM (Protein O-GlcNAcase (OGA, Homo sapiens, UniProt O60502); saturation binding; human cerebellum homogenate; radiolabelled compound).
CC(=O)Nc1ccc(NC(=O)C(C)Sc2nnc(Nc3ccccc3F)s2)cc1 (stereo not drawn) gave a Kd of 57.8 ± 9.8 µM (CD28; binding, microscale thermophoresis).
With O=C(c1ccc2c(c1)OCO2)N1CCCC1c1nnc(-c2nccc3ccccc23)o1 (stereo not drawn) the Kd was 1.23 µM (CD27; binding, microscale thermophoresis).
Cc1cccc(C2NC(=O)c3c(Cl)cccc3N2)c1 (racemic) has a Kd of 12 ± 1 µM (SMARCA4 (Homo sapiens, UniProt P51532, L1494Y); ITC; mutant).
For Cc1cc(C)c2[nH]c(C)c(CC(=O)NCCCCc3ccccn3)c2c1, the Kd was 1.14 µM (Hepatitis A virus cellular receptor 2; microscale thermophoresis).
The Kd of Cc1ccc(C(=O)Nc2cccc(C#N)c2)cc1Nc1nc(-c2cccnc2)nc2c1cnn2C is reported as 0.004 µM (EPHA2; binding, microscale thermophoresis; kinase domain; 25 °C, 5% DMSO).
The Kd of COCCOCCOCCN1/C(=C/C=C/C=C/C=C/C2=[N+](CCCCCC(=O)NCCCC[C@H](NC(=O)N[C@@H](CCC(=O)O)C(=O)O)C(=O)O)c3ccc(S(=O)(=O)[O-])cc3C2(C)C)C(C)(C)c2ccccc21 is reported as 2.48 ± 0.49 µM (FOLH1 (Homo sapiens, UniProt Q04609); binding, biolayer interferometry).
COc1ccc(NC(=O)Nc2nnc(Sc3nc4c(c(=O)n(C)c(=O)n4C)n3C)s2)cc1 has a Kd of 0.114 µM (Cyclin-dependent kinase 8, with cyclin C (CDK8, Homo sapiens, UniProt P49336); binding, reporter displacement).
Cc1c(=O)n(C)c(Nc2ccc(I)cc2F)c2c(=O)n(C3CC3)c(=O)n(-c3cccc(NC(=O)CCNC(=O)CCOCCOCCOCCOCCOCCOCCOCCOCCOCCOCCOCCOCCNC(=O)CCCCC4SCC5NC(=O)NC54)c3)c12 (stereo not drawn) gave a Kd of 0.131 ± 0.0094 µM (MAP2K1 (Oryctolagus cuniculus, UniProt P29678, S298N/S299K/Y300F); biolayer interferometry; 25 °C, added: ATP 1 mM).
CC(=O)N[C@@H](Cc1ccccc1Cl)C(=O)N1CCC[C@]12C=C[C@@H]1CC[C@@H](C(=O)N3CCC[C@@H]4C=C[C@H]5CC[C@@H](C(=O)O)N5C(=O)[C@H]43)N1C2=O gave a Kd of 1.6 µM (Vasodilator-stimulated phosphoprotein, EVH1 domain (VASP, Homo sapiens, UniProt P50552); fluorescence titration; 25 °C).
The Kd of O=C(CCc1ccccc1)N1CCC(O)(Cn2cnc3cc(Cl)ccc3c2=O)CC1 is reported as 8 µM (USP7 (Homo sapiens, UniProt Q93009); isothermal titration calorimetry; catalytic domain).
With CC(=O)Nc1ccc(S(=O)(=O)N2CCC(CC(=O)NCCCN3CCCCC3)CC2)cc1 the Kd was 1.71 µM (Hepatitis A virus cellular receptor 2; microscale thermophoresis).
O=C(CCCCCCC(=O)Nc1ccc(-c2c3ccc(=O)cc-3oc3cc(O)ccc23)c(C(=O)O)c1)NO has a Kd of > 40 µM (HDAC6 (Homo sapiens, UniProt Q9UBN7); binding, fluorescence anisotropy; low affinity nonspecific site).
For Cc1ccc(C(=O)Nc2cc(Cl)ccc2C(=O)O)cc1S(=O)(=O)Nc1cccc(Cl)c1, the Kd was 8 ± 0.45 µM (RPA1 N-terminal domain; binding, fluorescence polarisation competition; added: FITC-ATRIP probe).
COc1ccccc1CN(CCCO)C(=O)Nc1ccc(C)s1 has a Kd of 13.5 µM (Tumor necrosis factor receptor superfamily member 9; binding, microscale thermophoresis).
With NS(=O)(=O)c1ccc(Cc2c(-c3ccc(F)c(C4CCCCC4)c3)nn(-c3nc(C(=O)O)cs3)c2CC2CC2)cc1F the Kd was 0.0013 µM (LDHA (Homo sapiens, UniProt P00338); binding, SPR; added: NADH).
For Cn1c(=O)oc2c(C(=O)Oc3ccc(-c4ncc[nH]4)cc3)cccc21, the Kd was 18.2 ± 5.4 µM (CD28; microscale thermophoresis; 2% DMSO).
For O[C@@H]1[C@H](O)[C@@H]2C[C@@H]2[C@H]1n1cnc2c(NCc3cccc([125I])c3)nc(Cl)nc21, the Kd was 0.00335 ± 0.00054 µM (Adenosine receptor A3 (Canis lupus familiaris, UniProt Q28309); binding, saturation binding; HEK293 cell membranes; 2 h, room temperature).
With COc1ccc(NS(=O)(=O)c2cc(C(=O)Nc3ccccc3C(=O)O)ccc2C)cc1 the Kd was 234 ± 3 µM (RPA1 N-terminal domain; binding, fluorescence polarisation competition; added: FITC-ATRIP probe).
Cc1cccc(NC(=O)c2ccc(C)c(Nc3nc(-c4cccnc4)nc4c3cnn4C)c2)c1 has a Kd of 0.003 µM (EPHA2; binding, microscale thermophoresis; kinase domain; 25 °C, 5% DMSO).
With Cc1ccc(C(=O)Nc2ccccc2C(=O)O)cc1S(=O)(=O)NC1CCCC1 the Kd was > 250 µM (RPA1 N-terminal domain; binding, fluorescence polarisation competition; added: FITC-ATRIP probe).
Cc1[nH]c2c(C#N)cnn2c(=O)c1C(C)C gave a Kd of 0.025 to 0.05 µM (KDM5B (Homo sapiens, UniProt Q9UGL1); binding, isothermal titration calorimetry).
With Cc1ccc(NS(=O)(=O)c2cc(C(=O)Nc3ccccc3C(=O)O)ccc2C)cc1Cl the Kd was 43 ± 3.5 µM (RPA1 N-terminal domain; binding, fluorescence polarisation competition; added: FITC-ATRIP probe).
COc1cccc(C(=O)Nc2cccc(-c3nc(C)cc(=O)[nH]3)c2)c1 has a Kd of 14 µM (Cystathionine gamma-synthase 1, chloroplastic (CGS1, Arabidopsis thaliana, UniProt P55217); binding, microscale thermophoresis).
Cc1ccc(C(=O)Nc2cccc(C)c2C(=O)O)cc1S(=O)(=O)Nc1ccc(Cl)c(Cl)c1 gave a Kd of 36 ± 1.5 µM (RPA1 N-terminal domain; binding, fluorescence polarisation competition; added: FITC-ATRIP probe).
CCN(C(=O)COc1ccc(Cl)cc1)c1nnc(-c2ccc(C(C)(C)C)cc2)s1 has a Kd of 4.94 µM (VSIR (Homo sapiens, UniProt Q9H7M9); microscale thermophoresis).
CCc1ccc(NC(=O)c2ccc(C)c(S(=O)(=O)Nc3ccc(Br)cc3)c2)c(C(=O)O)c1 has a Kd of 9 ± 0.83 µM (RPA1 N-terminal domain; binding, fluorescence polarisation competition; added: FITC-ATRIP probe).
For O=C(Cn1c(=O)c2sccc2n(Cc2ccc([N+](=O)[O-])cc2)c1=O)NCc1ccco1, the Kd was 0.86 µM (CD27; binding, microscale thermophoresis).
